Measured values from different studies.
Protocols differ between the studies behind these lines.

CCN1CCN(Cc2ccc(C(=O)Nc3ccc(C)c(NCc4cnc5[nH]ccc5c4OC)c3)cc2C(F)(F)F)CC1
GI50 (U2OS overexpressing wild-type DDR1; cell growth): 1100 nM

O=C(CC(=O)Nc1ccc2c(/C=C/c3ccccn3)n[nH]c2c1)Nc1ccc(Cl)c(C(F)(F)F)c1
GI50 (Ba/F3 TEL-VEGFR3; cell growth, CCK-8): 1200 nM

Cc1cc(=O)oc2cc(OCCCCCCSC#N)ccc12
GI50 (SW1573; cell growth or viability, SRB): 2800 nM

CSc1cc(C)[nH]c(=O)c1CNC(=O)c1c(C)n(C(C)C2CCC(NC3(C)COC3)CC2)c2ccccc12 (stereo not drawn)
GI50 (KARPAS-422; cell growth or viability; 8 days): 11 nM

CCN(C(=O)c1cc(F)ccc1Oc1nncnc1N1CCC2(C1)CN([C@H](CCCN(C)CCOC)C(C)C)C2)C(C)C
GI50 (SK-MEL-5; cell growth or viability; 72 h): > 10000 nM

O=C(CCl)c1ccccc1Nc1cccc(C(F)(F)F)c1
GI50 (NCI-H28; cell growth or viability, CCK-8; 72 h): 1910 nM

Cc1cccc(NC(=O)CC(=O)Nc2ccc3[nH]nc(/C=C/c4ccccn4)c3c2)c1
GI50 (Ba/F3 TEL-VEGFR3; cell growth, CCK-8): 2000 nM

Cc1cc(C)c(CNC(=O)c2c(C)n(C(C)C3CCC(NC4(C)COC4)CC3)c3ccccc23)c(=O)[nH]1 (stereo not drawn)
GI50 (KARPAS-422; cell growth or viability; 8 days): 150 nM

O=C(CNC(=O)c1ccc(Cl)c(C(F)(F)F)c1)Nc1ccc2[nH]nc(/C=C/c3ccccn3)c2c1
GI50 (Ba/F3 TEL-VEGFR2; cell growth, CCK-8): 750 nM

N#CSCCCCCCOc1ccc2c(-c3ccccc3)cc(=O)oc2c1
GI50 (SW1573; cell growth or viability, SRB): 75000 nM

O=C(Nc1ccc(Sc2ccc3c(/C=C/c4ccccn4)n[nH]c3c2)cc1)C1CCCN1 (stereo not drawn)
GI50 (Ba/F3 TEL-VEGFR3; cell growth, CCK-8): 2190 nM

[Cl-].[Cl-].[Ru+2].c1ccc(-c2ccccn2)nc1.c1ccc(-c2ccccn2)nc1.c1ccc2cc3nc4c5cccnc5c5ncccc5c4nc3cc2c1
GI50 (SK-MEL-28; sulforhodamine B; normoxia, with: green light 523 nm): 278 nM

Repeated from above:
CCN1CCN(Cc2ccc(C(=O)Nc3ccc(C)c(NCc4cnc5[nH]ccc5c4OC)c3)cc2C(F)(F)F)CC1
GI50 (U2OS overexpressing wild-type DDR1; cell growth): 1100 nM

Cc1cc(C)c(CNC(=O)c2c(C)n(C(C)C3CCC(NC4(C)COC4)CC3)c3ccccc23)c(=O)[nH]1 (stereo not drawn)
GI50 (KARPAS-422; cell growth or viability; 8 days): 150 nM
